Experimental data collected from several papers.
Values joined by “and” are separate records of one study, mostly repeats; a detail may differ. Numbers after ± are the reported error. Values after ≈ are worked out from the molar mass of the structure shown.

SMILES | organism | test | test system | setting | how to read | quantity | result
Cn1cc(-c2cnc3[nH]cc(-c4cn(Cc5cccc(F)c5F)nn4)c3c2)cn1 | Plasmodium falciparum | invasion and early ring development | Hyp1-Nluc | 10 x growth EC50, 4 h | – | inhibition | 29.9%
CC(C)n1ncc2c(C(=O)NCC3(C)CNC3)cc(C3CC3)nc21 | coxsackievirus A16 | – | RD | 0.5 µM | – | cell protection | 44.8% and 44.3%
COCC(=O)N1CCC[C@H](C(=O)NCc2nc(-c3ccc(S(C)(=O)=O)cc3)cs2)C1 | Plasmodium falciparum | SYBR Green growth | asexual blood-stage parasites, 3D7 | 72 h | – | EC50 | 2300 ± 490 nM
CC(C)C[C@@H]1NC(=O)[C@@H](Cc2ccccc2)NC(=O)[C@H](CCN)NC(=O)[C@@H](NC(=O)[C@H](CCN)NC(=O)[C@@H](N)[C@@H](C)O)CCNC(=O)[C@H]([C@@H](C)O)NC(=O)[C@H](CCN)NC(=O)[C@H](CCN)NC1=O | Escherichia coli | vancomycin MIC with synergist, checkerboard | BW25113 | concentration not given, lowest-FICI combination, together with: vancomycin | – | MIC | 50 µg/mL
CO[C@H]1[C@H](O[C@H]([C@H]2O[C@@H](n3ccc(=O)[nH]c3=O)[C@H](O)[C@@H]2O)[C@H](NCCCNC(=O)[C@@H](NC(=O)[C@@H](NC(=O)N[C@H](C(=O)O)C(C)C)[C@@H]2CCN=C(N)N2)[C@@H](O)C(C)C)C(=O)O)O[C@H](CN)[C@H]1O | Mycolicibacterium smegmatis | microplate alamar blue | ATCC 607 | nutrient-deficient condition | – | MIC90 | 1.4 ± 0.082 µg/mL (≈ 1.48 µM)
COc1ccc(OCCCO)cc1-c1cn2cc(-c3nnc(NCCCCc4ccccc4)o3)ccc2n1 | Plasmodium falciparum | LDH readout | 3D7 Hyp1-Nluc | 20 µM, 72 h | reference: DMSO | parasite growth | 5.19%
CCC(NC(C)C)C(O)c1ccc(O)c(O)c1 (stereo not shown) | Drosophila melanogaster | fluorescence | – | liquid food, 40 µg/mL, first instar larvae | reference: solvent | fluorescein ingestion | 21%
O=C1C(O)=C([C@H]2CC[C@H](c3ccc(Cl)cc3)CC2)C(=O)c2ccccc21 | Plasmodium falciparum | parasite growth | Tm90-C2B, multidrug-resistant | 72 h | – | IC50 | > 2500 nM
N#CC(=C1C=CC(=NOC(=O)OCc2ccccc2)C=C1)c1ccccc1 | Clavispora lusitaniae | broth dilution | ATCC 34449 | 48 h, 37 °C | – | MFC | 128 µg/mL (≈ 359 µM)
Nc1nc(-c2ccccc2)nc2[nH]nc(Nc3ccc(C(F)(F)F)cc3)c12 | coxsackievirus B3 | – | 31-1-93, NMRI mice, CVB3 chronic myocarditis | oral, 100 mg/kg twice daily, day 6, dosed days 3 to 10, score scale 0 to 7 | direction not given | clinical score | 1
CNC(=O)c1cc(Oc2ccc(NC(=O)Nc3cccc(F)c3)cc2)ccn1 | Drosophila melanogaster | – | ptc>dRet M955T | in food, concentration not given, 25 °C | – | rescue of viability | no effect
COCC(=O)N1CCC[C@H](C(=O)NCc2cccc(-c3ccccc3)n2)C1 | Plasmodium falciparum | SYBR Green growth | asexual blood-stage parasites, 3D7 | 72 h | – | EC50 | 1300 ± 320 nM
CNS(=O)(=O)c1ccccc1Nc1nc(Nc2ccc(N3CCOCC3)cc2OC)ncc1Br | Plasmodium falciparum | schizont egress, Nluc release | Hyp1-Nluc | 10 x growth EC50, 4 h | – | inhibition | 87.1%
COC(=O)[C@@H](NCc1cc2ccccc2nc1OCc1ccccc1)C(C)C | Pseudomonas aeruginosa | – | – | 32 µg/mL, together with: pentamidine 50 µM | reference: control | growth | 94.1%
CN[C@H](CC(C)C)C(=O)N[C@H]1C(=O)N[C@@H](CC(N)=O)C(=O)N[C@H]2C(=O)N[C@H]3C(=O)N[C@H](C(=O)N[C@H](C(=O)O)c4cc(O)cc(O)c4-c4cc3ccc4O)[C@H](O)c3ccc(c(Cl)c3)Oc3cc2cc(c3O[C@@H]2O[C@H](CO)[C@@H](O)[C@H](O)[C@H]2O[C@H]2C[C@](C)(N)[C@H](O)[C@H](C)O2)Oc2ccc(cc2Cl)[C@H]1O | Streptococcus anginosus | broth microdilution | clinical isolate | – | – | MIC range | 0.5 µg/mL (≈ 0.345 µM)
O=c1cc(-c2ccccc2)oc2cc(O)c(O)c(O)c12 | Drosophila melanogaster | fluorescence | – | liquid food, 40 µg/mL, first instar larvae | reference: solvent | fluorescein ingestion | -56.9%
COc1cc(C=O)ccc1OC1=C(Cl)C(=O)c2ccccc2C1=O | Serratia marcescens | – | MTCC 4301 | 10 µg/mL | – | zone of inhibition | 23 mm
COc1ccc(CNc2nc(-c3ccc(C(=O)O)nc3)nc3sc4c(c23)CCCC4)cc1Cl | Plasmodium falciparum | LDH readout | 3D7 Hyp1-Nluc | 2 µM, 72 h | reference: DMSO | parasite growth | 30.2%
CN(C)CCCN1c2ccccc2Sc2ccc(C(F)(F)F)cc21 | Drosophila melanogaster | fluorescence | – | liquid food, 40 µg/mL, first instar larvae | reference: solvent | fluorescein ingestion | -11.9%

Repeated from above:
SMILES | organism | test | test system | setting | how to read | quantity | result
CO[C@H]1[C@H](O[C@H]([C@H]2O[C@@H](n3ccc(=O)[nH]c3=O)[C@H](O)[C@@H]2O)[C@H](NCCCNC(=O)[C@@H](NC(=O)[C@@H](NC(=O)N[C@H](C(=O)O)C(C)C)[C@@H]2CCN=C(N)N2)[C@@H](O)C(C)C)C(=O)O)O[C@H](CN)[C@H]1O | Mycolicibacterium smegmatis | microplate alamar blue | ATCC 607 | nutrient-deficient condition | – | MIC90 | 1.4 ± 0.082 µg/mL (≈ 1.48 µM)
COc1ccc(OCCCO)cc1-c1cn2cc(-c3nnc(NCCCCc4ccccc4)o3)ccc2n1 | Plasmodium falciparum | LDH readout | 3D7 Hyp1-Nluc | 20 µM, 72 h | reference: DMSO | parasite growth | 5.19%
CCC(NC(C)C)C(O)c1ccc(O)c(O)c1 (stereo not shown) | Drosophila melanogaster | fluorescence | – | liquid food, 40 µg/mL, first instar larvae | reference: solvent | fluorescein ingestion | 21%
